Assay results collected from several papers.
Every numbered part comes from another study and shows a few of its results, in no order.
Sequence of UniProt O15264 (whole entry, looked up): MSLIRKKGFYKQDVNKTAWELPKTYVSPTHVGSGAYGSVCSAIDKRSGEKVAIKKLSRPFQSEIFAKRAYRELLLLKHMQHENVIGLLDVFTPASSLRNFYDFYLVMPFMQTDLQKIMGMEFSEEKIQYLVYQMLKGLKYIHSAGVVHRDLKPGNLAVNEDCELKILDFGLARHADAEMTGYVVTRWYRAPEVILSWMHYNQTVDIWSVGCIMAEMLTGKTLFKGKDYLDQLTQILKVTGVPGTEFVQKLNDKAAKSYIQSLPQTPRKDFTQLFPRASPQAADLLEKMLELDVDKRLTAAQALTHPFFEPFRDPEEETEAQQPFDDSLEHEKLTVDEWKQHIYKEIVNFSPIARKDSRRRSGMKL
Sequence of UniProt Q13163 (whole entry, looked up): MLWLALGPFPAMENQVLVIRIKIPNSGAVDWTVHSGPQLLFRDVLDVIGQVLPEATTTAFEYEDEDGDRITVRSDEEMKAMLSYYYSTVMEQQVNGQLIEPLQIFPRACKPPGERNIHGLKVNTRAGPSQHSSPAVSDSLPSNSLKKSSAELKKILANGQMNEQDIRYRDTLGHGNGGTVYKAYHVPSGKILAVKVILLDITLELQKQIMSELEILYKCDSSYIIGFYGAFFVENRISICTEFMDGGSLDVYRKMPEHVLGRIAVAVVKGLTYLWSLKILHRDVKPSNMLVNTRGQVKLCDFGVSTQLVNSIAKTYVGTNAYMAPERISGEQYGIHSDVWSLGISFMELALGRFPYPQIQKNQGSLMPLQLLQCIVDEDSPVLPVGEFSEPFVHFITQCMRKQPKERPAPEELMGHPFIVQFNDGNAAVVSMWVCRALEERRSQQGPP
Sequence of UniProt P00519 (whole entry, unmodified, looked up): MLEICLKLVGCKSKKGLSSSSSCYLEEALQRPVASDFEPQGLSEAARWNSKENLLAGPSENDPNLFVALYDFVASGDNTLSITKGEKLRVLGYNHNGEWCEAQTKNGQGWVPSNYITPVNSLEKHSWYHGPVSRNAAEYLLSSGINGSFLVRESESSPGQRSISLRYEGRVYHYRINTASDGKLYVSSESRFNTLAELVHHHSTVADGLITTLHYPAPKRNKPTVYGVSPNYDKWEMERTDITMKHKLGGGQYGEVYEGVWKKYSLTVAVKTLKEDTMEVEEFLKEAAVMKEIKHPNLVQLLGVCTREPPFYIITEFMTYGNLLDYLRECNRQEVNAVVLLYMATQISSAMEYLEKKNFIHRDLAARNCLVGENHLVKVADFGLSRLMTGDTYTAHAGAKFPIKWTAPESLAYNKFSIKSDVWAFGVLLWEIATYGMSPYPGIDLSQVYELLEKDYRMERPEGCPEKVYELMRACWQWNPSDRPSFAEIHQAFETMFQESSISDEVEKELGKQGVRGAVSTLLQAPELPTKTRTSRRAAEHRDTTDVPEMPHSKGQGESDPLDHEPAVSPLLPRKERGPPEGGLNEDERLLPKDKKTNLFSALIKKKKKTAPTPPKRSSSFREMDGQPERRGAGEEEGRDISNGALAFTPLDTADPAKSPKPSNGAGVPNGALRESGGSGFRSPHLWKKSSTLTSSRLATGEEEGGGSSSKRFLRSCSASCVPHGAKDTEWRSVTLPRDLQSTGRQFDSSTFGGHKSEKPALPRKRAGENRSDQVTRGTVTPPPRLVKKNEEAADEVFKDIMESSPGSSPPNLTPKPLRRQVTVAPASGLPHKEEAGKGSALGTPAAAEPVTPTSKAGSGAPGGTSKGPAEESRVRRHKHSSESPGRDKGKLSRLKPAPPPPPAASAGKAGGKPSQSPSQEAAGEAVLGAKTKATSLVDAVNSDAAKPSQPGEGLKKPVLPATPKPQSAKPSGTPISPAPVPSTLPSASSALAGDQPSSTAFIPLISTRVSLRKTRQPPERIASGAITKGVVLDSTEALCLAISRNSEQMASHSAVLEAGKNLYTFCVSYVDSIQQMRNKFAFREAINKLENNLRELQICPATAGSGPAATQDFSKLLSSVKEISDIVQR
Sequence of UniProt P30530 (whole entry, looked up): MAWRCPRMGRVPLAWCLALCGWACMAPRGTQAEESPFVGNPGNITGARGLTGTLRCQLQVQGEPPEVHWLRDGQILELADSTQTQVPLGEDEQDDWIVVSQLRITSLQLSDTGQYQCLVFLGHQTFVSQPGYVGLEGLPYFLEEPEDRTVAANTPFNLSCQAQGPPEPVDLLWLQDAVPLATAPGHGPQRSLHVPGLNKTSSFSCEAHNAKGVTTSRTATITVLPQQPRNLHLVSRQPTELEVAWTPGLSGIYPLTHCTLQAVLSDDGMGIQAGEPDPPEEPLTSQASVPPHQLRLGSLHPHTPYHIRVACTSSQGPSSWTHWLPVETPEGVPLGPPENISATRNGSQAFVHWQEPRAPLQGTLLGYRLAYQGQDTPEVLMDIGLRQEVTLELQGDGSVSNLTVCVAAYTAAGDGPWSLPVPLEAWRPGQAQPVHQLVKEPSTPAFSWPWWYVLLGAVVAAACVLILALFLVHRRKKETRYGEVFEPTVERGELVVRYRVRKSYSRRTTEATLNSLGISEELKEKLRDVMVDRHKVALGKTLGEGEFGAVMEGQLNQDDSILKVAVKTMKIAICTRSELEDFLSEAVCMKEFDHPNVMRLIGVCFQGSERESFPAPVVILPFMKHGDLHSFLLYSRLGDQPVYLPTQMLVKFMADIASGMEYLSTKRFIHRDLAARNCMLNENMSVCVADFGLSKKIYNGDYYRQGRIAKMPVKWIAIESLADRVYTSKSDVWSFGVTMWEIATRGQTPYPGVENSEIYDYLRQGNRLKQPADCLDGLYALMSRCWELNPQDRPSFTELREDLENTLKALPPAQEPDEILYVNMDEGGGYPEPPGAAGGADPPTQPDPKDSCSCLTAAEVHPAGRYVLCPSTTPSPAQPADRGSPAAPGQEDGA
Sequence of UniProt O15530 (whole entry, looked up): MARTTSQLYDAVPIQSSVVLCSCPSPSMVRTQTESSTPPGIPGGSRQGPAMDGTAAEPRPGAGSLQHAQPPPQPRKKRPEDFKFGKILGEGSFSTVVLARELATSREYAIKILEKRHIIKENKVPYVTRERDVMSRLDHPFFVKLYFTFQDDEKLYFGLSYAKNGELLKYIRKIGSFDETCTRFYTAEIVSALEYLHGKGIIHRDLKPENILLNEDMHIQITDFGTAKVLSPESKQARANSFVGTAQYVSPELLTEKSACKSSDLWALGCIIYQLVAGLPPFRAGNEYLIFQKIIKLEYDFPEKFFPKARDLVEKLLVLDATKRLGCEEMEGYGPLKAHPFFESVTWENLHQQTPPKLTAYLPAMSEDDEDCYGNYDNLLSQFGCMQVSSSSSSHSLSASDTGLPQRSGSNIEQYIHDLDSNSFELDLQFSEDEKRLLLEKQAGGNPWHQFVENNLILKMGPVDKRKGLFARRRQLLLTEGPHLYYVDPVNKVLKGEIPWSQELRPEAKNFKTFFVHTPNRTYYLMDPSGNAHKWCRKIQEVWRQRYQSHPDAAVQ
Sequence of UniProt O00506 (whole entry, looked up): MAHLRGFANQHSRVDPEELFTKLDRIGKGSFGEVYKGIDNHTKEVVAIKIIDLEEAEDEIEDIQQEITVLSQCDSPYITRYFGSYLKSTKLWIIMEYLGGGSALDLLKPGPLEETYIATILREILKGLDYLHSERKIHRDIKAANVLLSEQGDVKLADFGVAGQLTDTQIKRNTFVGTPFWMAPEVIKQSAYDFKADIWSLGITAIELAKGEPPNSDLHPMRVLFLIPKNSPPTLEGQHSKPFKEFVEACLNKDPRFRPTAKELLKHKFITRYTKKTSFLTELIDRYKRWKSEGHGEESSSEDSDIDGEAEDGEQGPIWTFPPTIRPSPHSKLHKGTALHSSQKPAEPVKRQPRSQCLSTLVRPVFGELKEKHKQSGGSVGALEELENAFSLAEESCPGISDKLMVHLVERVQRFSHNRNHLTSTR
Sequence of UniProt O95747 (whole entry, looked up): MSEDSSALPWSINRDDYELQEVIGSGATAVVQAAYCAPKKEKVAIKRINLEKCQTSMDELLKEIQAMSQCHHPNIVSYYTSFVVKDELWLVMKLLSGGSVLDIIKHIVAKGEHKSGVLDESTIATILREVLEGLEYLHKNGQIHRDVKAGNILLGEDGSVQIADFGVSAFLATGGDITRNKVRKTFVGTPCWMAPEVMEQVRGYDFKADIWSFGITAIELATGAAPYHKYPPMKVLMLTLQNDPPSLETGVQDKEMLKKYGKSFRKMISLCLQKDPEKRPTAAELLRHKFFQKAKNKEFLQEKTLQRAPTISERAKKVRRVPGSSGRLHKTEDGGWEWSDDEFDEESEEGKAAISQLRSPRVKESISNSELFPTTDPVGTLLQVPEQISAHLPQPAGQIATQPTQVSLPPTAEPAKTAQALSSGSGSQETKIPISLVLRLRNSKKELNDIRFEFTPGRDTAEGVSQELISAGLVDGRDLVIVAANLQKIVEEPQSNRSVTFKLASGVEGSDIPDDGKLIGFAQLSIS

Series 1 — method: RNA Bind-n-Seq; molecule type: RNA; medium: in vitro; concentration: not given; reference: input RNA pool; direction: higher = stronger binding
Target: RING finger protein unkempt homolog, zinc fingers 1-6, GST-SBP tag (UNK, Homo sapiens, UniProt Q9C0B0, residues 30-357)
Sequence of UniProt Q9C0B0 (30-357, looked up): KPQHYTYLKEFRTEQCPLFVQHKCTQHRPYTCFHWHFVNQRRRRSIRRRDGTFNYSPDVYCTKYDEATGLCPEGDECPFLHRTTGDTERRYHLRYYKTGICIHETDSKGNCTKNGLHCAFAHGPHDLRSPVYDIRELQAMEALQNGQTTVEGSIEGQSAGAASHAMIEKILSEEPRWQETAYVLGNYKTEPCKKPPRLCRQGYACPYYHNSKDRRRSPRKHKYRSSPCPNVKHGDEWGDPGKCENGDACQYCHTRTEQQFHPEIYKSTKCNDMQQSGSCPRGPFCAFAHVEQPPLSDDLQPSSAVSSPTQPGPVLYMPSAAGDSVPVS
Notes: RNA with constant flanks, human-mouse chimeric sites, ends assumed
Shared flanks, not repeated: GGGAGUUCUACAGUCCGACGAUC … CAACAGAGGAUUGAGCAUCA
`GUAAUGGACGUUAAUACUGCUUUACAAGAGGUGCUGAAGACCGCCCUCAUCCACGAUGGCCUAGCACGUGGCAUACGCGAAGCUGCCAAAGCCUUAGACAAGCGCCAAGCCCAUCUGUGU` has a bound/input enrichment of 0.214 ratio.
For `CAGCCUCAGAGCCCAGACUUCCUGGAUAUUACCAACCCUAAAGCGGUAUUAGAAAAUGCAUUGAGAAACUUUGCCUGUCUGACGACUGGGGAUGUGAUUGCUAUCAACUACAAUGAGAAG`, the bound/input enrichment was 0.288 ratio.
`AACUUUGUGCAUCGGUUUCCCUUUGUAGCUGUUUCAAUUGGCUUUGCUGUGAAUAAAGAGAUGGAGUUUGGAAUUGUGUACAGCUGUGUGGAAGAUAAGAUGUACACCGGCAGGAAAGGG` has a bound/input enrichment of 0.474 ratio.
`UGUGCAUUAUGAUGCUUGAGAUGGUUUUGCAAAAGCAGAAAUCGCUGCAAGGUAAUCACAAUAGAUAAAAGUGGUAUUUUAAACCUUUGAAAUAAAUGGAUGUAACUGUACCUUGGUACA` gave a bound/input enrichment of 0.479 ratio.
With `CUGAGGAUACCACUGAAGAGACCUUAAAAGAAUCAUUUUGACGGCUCGUUCGUGCAAGAAUAGUCACUGAUCGGGAAACUGGUUCUUCCAAAGGGUUUUGGUUUUGUGACUUUAAUAGUG` the bound/input enrichment was 0.215 ratio.
For `CGCUUGGAUGAGGCUGGUGUCACAGAUGAAGUGCUAGAUUCUGCCAUGCAAGCCUUCCUUCUGGAGGUCAUUGUUAAACAUGGGGAGCCAGCCCCUUAUUUAUGUAACAAAGAUCCGUUU`, the bound/input enrichment was 0.165 ratio.
`AAAGUGGACUAUGGCGAGUACAUGGAUAAAAACAAUGUGAGGCGGCAAGCAACAACAAUCAUAGCUGAUAAUAUUAUAUUUCUGAGUGACCAGACAAAAGAGAAGGAAUAGAACGGAUGA` gave a bound/input enrichment of 8.29 ratio.
`GAUCAUGAACCACCAUCAGAAAUGAAGGAUGAGACUACCAGACGAGCCAAAACAGCUAGCACUAGAAAAAGUAAACUUAACCUUGCAGAGUUCCUUAAUGAAGAUACAAGUUAAGAGAGC` has a bound/input enrichment of 3.48 ratio.

Series 2 — method: aptamer microarray, sandwich; molecule type: DNA with 2'F-ANA; medium: in vitro; concentration: 200 nM; with: Cy3 exosite-II aptamer, 400 nM; direction: higher = stronger binding; sequence: GGTTGGTGTGGTTGG
Target: Prothrombin, mature alpha-thrombin (F2, Homo sapiens, UniProt P00734)
Notes: whole 15-mer aptamer, many near background
Under “mean fluorescence intensity”, `2'F-ANA at 1 6 9 10 11 14` is recorded as 57.8 a.u.
`2'F-ANA at 6 9 10 14 15`: “mean fluorescence intensity” 108 a.u.
`2'F-ANA at 4 5 6 7 8 9 10 11 15`: “mean fluorescence intensity” 48.4 a.u.
`2'F-ANA at 3 4 7 10 13 15` — result for “mean fluorescence intensity”: 276 a.u.
`2'F-ANA at 4 6 7 9 15`: “mean fluorescence intensity” 235 a.u.
`2'F-ANA at 2 3 7 8 9 11 13`: “mean fluorescence intensity” 732 a.u.
Under “mean fluorescence intensity”, `2'F-ANA at 2 7 8 9 11 12 13 15` is recorded as 527 a.u.
Under “mean fluorescence intensity”, `2'F-ANA at 1 4 5 7 9 10 11 15` is recorded as 50.5 a.u.

Series 3 — observed: enzyme activity; mode: inhibitor; concentration: 0.5 µM; reference: control
Target: Activin receptor type-1 (ACVR1, Homo sapiens, UniProt Q04771)
Construct (Q04771 1-509): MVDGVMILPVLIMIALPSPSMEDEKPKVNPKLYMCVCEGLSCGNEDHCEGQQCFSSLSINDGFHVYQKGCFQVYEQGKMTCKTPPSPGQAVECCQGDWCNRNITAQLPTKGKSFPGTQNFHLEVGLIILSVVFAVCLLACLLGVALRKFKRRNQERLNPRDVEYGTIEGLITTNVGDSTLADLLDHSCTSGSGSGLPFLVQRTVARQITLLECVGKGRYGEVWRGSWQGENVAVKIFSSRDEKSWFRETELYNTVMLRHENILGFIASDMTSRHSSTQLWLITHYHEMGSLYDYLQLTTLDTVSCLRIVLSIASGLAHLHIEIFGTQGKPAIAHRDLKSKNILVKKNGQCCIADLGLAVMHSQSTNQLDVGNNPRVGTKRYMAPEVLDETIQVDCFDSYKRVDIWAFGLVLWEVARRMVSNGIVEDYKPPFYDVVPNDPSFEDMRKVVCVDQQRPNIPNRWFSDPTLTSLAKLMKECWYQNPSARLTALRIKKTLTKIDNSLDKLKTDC
`Oc1ccc(-c2nc(-c3ccncc3)c(-c3ccc(F)cc3)[nH]2)cc1` has a remaining activity of 106%.
The remaining activity of `OCC(O)CCON=C1C(c2c(O)[nH]c3ccccc23)=Nc2ccccc21` (centres unmarked) is reported as 199%.
`COc1ccc(CNC(=O)Nc2ncc([N+](=O)[O-])s2)cc1` has a remaining activity of 99.5%.
With `COc1cc2ncnc(Nc3ccc(Oc4ccccc4)cc3)c2cc1OC` the remaining activity was 93.7%.
With `O=C(Nc1cccc(Nc2cc(Nc3cccc(C(F)(F)F)c3)ncn2)c1)C1CC1` the remaining activity was 103%.
With `Cn1sc(=O)n(Cc2ccccc2)c1=O` the remaining activity was 102%.
For `CC(C)[C@H](CO)Nc1nc(Nc2cc(N)cc(Cl)c2)c2ncn(C(C)C)c2n1`, the remaining activity was 99.4%.

Series 4 — observed: cell-free assay; method: competition with immobilised ligand; concentration: 1 µM
Structure (SMILES): CN(C)c1ncnc(-c2ccc3nc(Nc4cc(CN5CCN(C(=O)CC(F)(F)F)CC5)ccn4)[nH]c3c2)c1Cl
EPHB4 (Homo sapiens, UniProt P54760) — remaining binding: 100%.
MAP3K2 (Homo sapiens, UniProt Q9Y2U5) — remaining binding: 78%.
The remaining binding was 100% (STK25 (Homo sapiens, UniProt O00506)).
It gave 100% for remaining binding (EPHA6 (Homo sapiens, UniProt Q9UF33)).
It gave 100% for remaining binding (PDPK1 (Homo sapiens, UniProt O15530)).
For RPS6KB1 (Homo sapiens, UniProt P23443): remaining binding read 92%.
PIM3 (Homo sapiens, UniProt Q86V86) — remaining binding: 100%.
It gave 61% for remaining binding (NIM1K (Homo sapiens, UniProt Q8IY84)).
Tyrosine-protein kinase ABL1, phosphorylated (ABL1, Homo sapiens, UniProt P00519, F317L) — remaining binding: 57%.
It gave 94% for remaining binding (OXSR1 (Homo sapiens, UniProt O95747)).
The remaining binding was 87% (ERBB2 (Homo sapiens, UniProt P04626)).
The remaining binding was 100% (MAPK13 (Homo sapiens, UniProt O15264)).
It gave 100% for remaining binding (MAPK14 (Homo sapiens, UniProt Q16539)).
MAP2K5 (Homo sapiens, UniProt Q13163) — remaining binding: 1.8%.
It gave 57% for remaining binding (AXL (Homo sapiens, UniProt P30530)).

Excerpt of the above (series 4):
It gave 94% for remaining binding (OXSR1 (Homo sapiens, UniProt O95747)).
The remaining binding was 87% (ERBB2 (Homo sapiens, UniProt P04626)).
The remaining binding was 100% (MAPK13 (Homo sapiens, UniProt O15264)).
It gave 100% for remaining binding (MAPK14 (Homo sapiens, UniProt Q16539)).
